Results of several laboratories.
Numbered parts are unrelated; each lists some results of a single study. Substitutions count along the parent as printed.

Study 1
Target: RNA binding protein fox-1 homolog 2, RRM domain, GST-SBP tag (RBFOX2, Homo sapiens, UniProt O43251-10, residues 100-194)
Technique: RNA Bind-n-Seq
Form: RNA
Matrix: in vitro
Concentration: 365 nM
Notes: natural RNA segment, single round, ends assumed
Baseline: no-protein control
Reading: higher = stronger binding
Constant ends, left off below: GGGAGUUCUACAGUCCGACGAUC … UGGAAUUCUCGGGUGCCAA
Target sequence (chain): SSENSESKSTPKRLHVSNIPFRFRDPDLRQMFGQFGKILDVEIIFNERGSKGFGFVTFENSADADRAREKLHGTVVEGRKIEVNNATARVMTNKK
Strand | RBNS enrichment (R)
UGUUUACACCUGGUGUCCAAUUUUGUAUUUUAAAAUGUAAUCCAUUUUUACUUCAGCUCAUCCAAAAGCAGCCAGCAGACCGGUUGACUGAGACCGGUCUGUGGCUGUGG | 0.28
CGAGAGACGCAUCAUCGAGACCCCCCCACACCGCUACUAGGCCUACACCUCUCCCCACGCAGAGGGGGAAUUCUGCCCUGGUGAAACAGACACUCCAGACAUGGGAGAAG | 0.349
UACCACCUGGUGCCUCACUGUCAAACUGAACGAGGGGGUGUGGCCAUGGCCUGAGCCACUGUUCUGGGAGCAGAAGGCAGCUCACUGCCCCCCCCCACACACACACCGAC | 0.194
GCCAAUGGAGAAAUGCAGCAUUCACUCUCCCUGUCUUUUCCCCUUCCCUCAGCAGAAACGUGUUUAUCAGCAAGUCGUGAGUCAAACUGCUGCCUUUUAAAAAACCCACA | 1.5
AGAUUUUAGGUAGGAGGGGAGCAGAGGAAUUAUGAACUGGGGUAAACCCAUUUUGAAUAUUAGCAUUGCCAAUAUCCUGUAUUCUUGUUUUACAUUUGGAUUAGAAAUUU | 0.61
CCGUGAAUUCUCGGAAUGGCAGGGGAAGCCUUGCACUAGGUUGCAGAGAAGCAUCCUCCACAUCCUGUGUCAGAAACCCUGGUCUCCGUGGCACUUGUAACUCACCGUGC | 0.44
CUCCAGACCUGGUUGAGGGAGUAUAGAUUGGGUCUAGCUUGCUUCAGUGUACAGAAACCUCCUCUGUCGUGGCUAGCAUUGAAGCUGGGGUGGAGAACCCGAGGUUAGUU | 1.16
AUACAAAAAAACAUUGAUACUAUAAAAUGGUAAAAAGCGUCUUCUUUCUAAACAGCCCCAGUGUUGAAGUCUAUACUUAAUUUUGUUCUGUUCUGUUUUGUUUUCCUGUU | 0.462
UCUGGGCCUUUUUAAAAACAUAAUUAUAUACUUUAGAAAUACAAGGGAUUCCGAUAUGUCAGGACCUAAAUGGCCUAAGCACCUGUCAAAUUAAAAUUCCAAAAUUCAUU | 0.322
AUACUUUUAAUGGUAAGAAAUGAACUUGAGGUCCCAGGAGGUUUUGUUGCCUUUUCAUUGAUUAGAGACAAUAAAUAUCUUGUAACUUCCUAACCAGAUCUGAGCUGUGC | 0.289
UAGCAGAAGAUUUAGCCAUGUCCUUCCCCUCACUUGUGUGAGUGGCCCCUUCUGAAUCUCUCCAGCAGCCAGAGGCACGUGAGAAGCAGAAAGAGCUGGUAAAUAAAGCC | 0.434
CUGAACUGUGCGUAAAGUAAUAGAGAAAAGCUUUAGGGUCUCAAUAGUGUCACCUGUGUAAAUCAAAUCAAAAUAGCCUUCCCUAUUAUUUAUGAACCCAUGGGAGACUU | 0.327

Study 2
Target: Interferon regulatory factor 5, full length, phosphomimetic (IRF5, Homo sapiens, UniProt Q13568-2, residues 1-514, S451D/S453D/S456D/S462D)
Technique: protein-binding microarray
Form: double-stranded DNA, one strand shown
Matrix: in vitro
Concentration: 940 nM top
Notes: 60-bp whole probe
Together with: salmon DNA 0.4 mg/ml
Baseline: random background probes
Reading: higher = stronger binding
Constant ends, left off below: GCCTAGCAC … GTCTTGATTCGCTTGACGCTGCTG
Strand | fitted relative affinity [z-score]
GACGATCTCGGTCTCGGGACGTGCTAG | 1.59
GACGGTCTCGGACTAGGGACGTGCTAG | 0.878
GACGAACTGAGTTTCGATACGTGCTAG | 8.22
GCATCTATCTTAAATAGGGACGTGCTA | -0.156
TTAGAGCTGAGTATCGATTAGTGCTAG | 4
TAACTTTTTTTTTTCCCTGAGTGCTAG | 1.17
GACCATTTCAGACTGGAGACGTGCTAG | -0.131
GACGTACTGGGGTTTCGAGACGTGCTA | 1.9
GACGGTTTCCGTCTCCTGACGTGCTAG | 1.99
TTAGGTATCCTTATCCTTGAGTGCTAG | 0.394
CAGATTTGGCATATCTATTTGTGCTAG | -0.0185
GACGGTTTCGGTTCCGGAACGTGCTAG | 13.6
ATGTTTTTCATTTTTTTTCAGTGCTAG | 1.72
GACGGTGTCGGTCTCGGGACGTGCTAG | 1.29
TTAGGTTTCGACTATCAGTTAGTGCTA | 9.59
TCATTACCGCATATCGGACTGTGCTAG | 0.0435
CCCTGTTTCCATCTCTCAAAGTGCTAG | 1.93
AAGGTTACCCATCTCAAGTAGTGCTAG | -0.17
TCAAATTTCCCTCTGCTACTGTGCTAG | 0.737
TTAGAACTGGGGTATCGTTTAGTGCTA | 1.27
TCAAATGCCCTTTTGGTACTGTGCTAG | -0.617
CACAACCAAACAAGAAGATGGTGCTAG | -0.276
TTAGGTTTTGACACTGGGTTAGTGCTA | 0.286
GACGATTTCAGTTTCGAGGCGTGCTAG | 5.01
GACGGTCTCCATATCCTGACGTGCTAG | 0.179

Study 3
Target: Sal-like protein 4, full length isoform A (SALL4, Homo sapiens, UniProt Q9UJQ4, residues 1-1053)
Sequence of UniProt Q9UJQ4 (whole entry, looked up): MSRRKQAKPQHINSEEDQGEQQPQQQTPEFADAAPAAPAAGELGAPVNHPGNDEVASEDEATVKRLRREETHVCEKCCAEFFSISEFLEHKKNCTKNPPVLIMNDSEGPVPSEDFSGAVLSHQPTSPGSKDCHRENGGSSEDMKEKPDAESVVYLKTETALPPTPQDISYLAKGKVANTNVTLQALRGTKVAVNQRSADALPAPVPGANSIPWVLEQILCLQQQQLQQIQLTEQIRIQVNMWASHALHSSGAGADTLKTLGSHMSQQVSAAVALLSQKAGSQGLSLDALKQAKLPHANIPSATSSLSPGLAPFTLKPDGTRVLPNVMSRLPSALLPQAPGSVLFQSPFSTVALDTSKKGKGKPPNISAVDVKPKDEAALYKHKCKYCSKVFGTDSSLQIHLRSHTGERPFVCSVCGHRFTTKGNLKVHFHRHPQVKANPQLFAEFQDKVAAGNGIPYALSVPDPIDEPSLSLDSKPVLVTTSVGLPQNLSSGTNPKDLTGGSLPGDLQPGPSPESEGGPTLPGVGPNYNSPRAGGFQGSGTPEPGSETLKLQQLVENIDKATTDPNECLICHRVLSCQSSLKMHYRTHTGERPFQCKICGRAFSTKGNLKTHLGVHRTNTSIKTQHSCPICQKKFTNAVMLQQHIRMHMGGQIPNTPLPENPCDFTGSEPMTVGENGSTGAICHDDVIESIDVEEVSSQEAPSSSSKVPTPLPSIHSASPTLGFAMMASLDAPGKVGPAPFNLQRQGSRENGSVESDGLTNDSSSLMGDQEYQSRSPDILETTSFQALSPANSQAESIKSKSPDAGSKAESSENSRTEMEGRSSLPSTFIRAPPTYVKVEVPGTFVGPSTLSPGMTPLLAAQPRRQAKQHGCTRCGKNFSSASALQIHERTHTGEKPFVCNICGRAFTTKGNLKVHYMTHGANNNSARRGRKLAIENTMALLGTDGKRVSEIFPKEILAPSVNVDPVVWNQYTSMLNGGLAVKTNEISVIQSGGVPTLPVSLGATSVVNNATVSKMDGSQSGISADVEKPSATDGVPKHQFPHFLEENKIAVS
Technique: universal PBM
Form: double-stranded DNA, one strand shown
Matrix: in vitro
Concentration: 600 nM
Notes: 8-mer, flanks averaged, mean of replicates
Reading: higher = stronger binding
Strand | E-score
AGGTCGGG | -0.258
ATATTTAA | 0.444
ACTGGGTA | -0.0449
CGACATCG | -0.139
GTCAACCA | 0.0141
AGCGTGCA | -0.102
CGACGGCA | -0.32
ATCGAAAC | 0.0446
AATTTATC | 0.356
CTCGGTGA | -0.114
CCCGTTCC | -0.226
TACGTCTA | 0.118
CTGCGTAC | -0.137
GGCGGCCC | -0.464
ATATTTGA | 0.376
CTAATAAA | 0.335
ACGACACT | -0.107
ACGCTCGG | -0.187

Study 4
Target: PABPC1L2, full length, GST fusion (mouse, UniProt A0ABA7IW68)
Technique: RNAcompete
Form: RNA
Matrix: in vitro
Concentration: 20 nM
Notes: 7-mer, probes averaged, single round
Baseline: mean of 7-mers
Reading: higher = stronger binding
Residues (chain): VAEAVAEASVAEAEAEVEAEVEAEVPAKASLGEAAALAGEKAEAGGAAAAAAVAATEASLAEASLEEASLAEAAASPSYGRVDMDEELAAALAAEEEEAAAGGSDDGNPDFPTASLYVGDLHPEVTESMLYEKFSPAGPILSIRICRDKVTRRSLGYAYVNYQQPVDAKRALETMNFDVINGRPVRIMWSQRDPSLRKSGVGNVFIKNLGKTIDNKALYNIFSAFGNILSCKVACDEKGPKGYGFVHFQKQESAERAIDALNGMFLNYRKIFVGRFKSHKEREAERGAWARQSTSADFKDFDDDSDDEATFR
Strand | 7-mer Z-score
GGUUUGA | -0.309
UAAUUGC | -0.286
UGCGGAU | -0.0591
GCAAGCA | -0.161
CCCUAGC | -0.327
UCGAUCG | -0.184
CCCUUAC | -0.356
AGGGUCA | 0.287
GGACCUC | -0.117
UAGGUUU | -0.347
ACGGCUA | 0.00436
CGAGGUG | 0.157
GUUCCAC | -0.273
CUUGUAC | -0.338
GUUUUAG | -0.394
CUAUAUC | -0.257
ACCAUCA | -0.233
UACGCUU | -0.311
GCCUUUU | -0.0808
UGUAGUG | -0.13
GGUCUUA | -0.271
GGUGCCC | -0.144
UACCCCA | -0.373
GACCUGU | -0.387
CGAAGCC | -0.267

Study 5
Target: MAFG, bZIP domain (human)
Technique: DHFR protein complementation
Matrix: yeast
Notes: single substitutions, most at no-binding floor
Baseline: wild-type JUN-FOS pair
Reading: higher = stronger binding
Starting sequence: JUN, bZIP domain (human); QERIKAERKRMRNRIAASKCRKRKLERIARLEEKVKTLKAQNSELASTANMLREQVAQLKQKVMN; partner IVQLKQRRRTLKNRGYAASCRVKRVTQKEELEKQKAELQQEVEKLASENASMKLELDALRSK
Change | binding fitness [natural log]
S47A | -1.33
Q41V | -1.54
Q55S | -1.32
N42F | -1.44
A40L | -1.47
N42V | -1.14
N42P | -1.45
A49V | -1.15
I28Y | -1.53
T48P | -1.54
T48W | -1.46
N42T | -1.46
L45V | -1.48
S47E | -1.44
E32M | -1.54
L31I | -1.49
K39V | -1.45
A57T | -1.39
A29F | -1.38
Q41D | -1.51
S47M | -1.27
L52G | -1.53
K36F | -1.35
E33P | -1.49
V56W | -1.54

Study 6
Target: Histone acetyltransferase KAT6A, winged helix 1, GST fusion (KAT6A, Homo sapiens, UniProt Q92794, residues 1-85)
Technique: protein binding microarray
Form: double-stranded DNA, one strand shown
Matrix: in vitro
Concentration: not given
Notes: 8-mer, flanks averaged, mean of 2 arrays, mostly near background
Baseline: not given
Reading: higher = stronger binding
Target sequence (chain): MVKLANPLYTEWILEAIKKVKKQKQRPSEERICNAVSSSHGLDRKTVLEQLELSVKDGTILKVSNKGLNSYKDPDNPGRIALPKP
Strand | E-score
ACCACACG | -0.0488
AGAGTCAA | -0.0686
CATTCTGC | 0.00635
AACACTGG | -0.0976
TCGTCTAA | 0.0333
ATTTATTC | -0.167
GAAAAGGC | 0.0788
ACCCTGAA | -0.102
CACGTGCC | -0.194
GCGCGTTA | 0.387
CTGCGCAC | 0.219
CAGCTAAC | -0.194
ACTGTGCA | -0.106
AACATTAC | 0.00647
GTTAAATA | -0.0411
AGATTAGG | -0.0494
CCGACTAC | 0.17
ACGTACGA | 0.00511
TCATCCCA | -0.222
CGCTTCGC | 0.314
ATGTGTAC | -0.0559
ATTATTCC | 0.00786
GACGTATC | 0.0584
GTACATTA | 0.0742
CTCAAGCC | 0.0278

Some of these lines once more (study 5):
Change | binding fitness [natural log]
A49V | -1.15
A40L | -1.47
L31I | -1.49
T48W | -1.46
Q55S | -1.32
I28Y | -1.53
A57T | -1.39
K36F | -1.35
L45V | -1.48
L52G | -1.53
S47M | -1.27
A29F | -1.38
